Experimental data gathered from unrelated publications.
Every numbered part comes from another study and shows a few of its results, in no order. Several values in a cell are separate wells, animals, samples, runs or records.
Sequence of UniProt P51812 (whole entry, looked up): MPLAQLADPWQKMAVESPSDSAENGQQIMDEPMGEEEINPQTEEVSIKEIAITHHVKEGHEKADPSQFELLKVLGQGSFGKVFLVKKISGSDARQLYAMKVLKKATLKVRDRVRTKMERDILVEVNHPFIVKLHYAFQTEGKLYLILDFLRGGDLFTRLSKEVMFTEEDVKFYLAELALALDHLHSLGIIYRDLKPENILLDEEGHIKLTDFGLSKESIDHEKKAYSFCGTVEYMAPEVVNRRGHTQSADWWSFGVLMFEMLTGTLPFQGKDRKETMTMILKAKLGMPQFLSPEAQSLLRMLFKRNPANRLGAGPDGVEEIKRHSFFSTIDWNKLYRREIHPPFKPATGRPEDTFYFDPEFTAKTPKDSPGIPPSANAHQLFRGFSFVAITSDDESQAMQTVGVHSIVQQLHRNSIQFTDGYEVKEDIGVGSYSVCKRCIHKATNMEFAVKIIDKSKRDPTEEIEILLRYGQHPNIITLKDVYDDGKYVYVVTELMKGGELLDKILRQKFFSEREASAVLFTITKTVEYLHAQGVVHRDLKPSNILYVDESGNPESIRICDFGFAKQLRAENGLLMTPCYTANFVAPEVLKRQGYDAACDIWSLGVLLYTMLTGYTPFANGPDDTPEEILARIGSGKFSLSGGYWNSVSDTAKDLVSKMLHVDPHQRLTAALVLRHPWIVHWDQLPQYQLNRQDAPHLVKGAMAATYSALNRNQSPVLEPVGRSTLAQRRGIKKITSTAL
Sequence of UniProt Q14680 (whole entry, looked up): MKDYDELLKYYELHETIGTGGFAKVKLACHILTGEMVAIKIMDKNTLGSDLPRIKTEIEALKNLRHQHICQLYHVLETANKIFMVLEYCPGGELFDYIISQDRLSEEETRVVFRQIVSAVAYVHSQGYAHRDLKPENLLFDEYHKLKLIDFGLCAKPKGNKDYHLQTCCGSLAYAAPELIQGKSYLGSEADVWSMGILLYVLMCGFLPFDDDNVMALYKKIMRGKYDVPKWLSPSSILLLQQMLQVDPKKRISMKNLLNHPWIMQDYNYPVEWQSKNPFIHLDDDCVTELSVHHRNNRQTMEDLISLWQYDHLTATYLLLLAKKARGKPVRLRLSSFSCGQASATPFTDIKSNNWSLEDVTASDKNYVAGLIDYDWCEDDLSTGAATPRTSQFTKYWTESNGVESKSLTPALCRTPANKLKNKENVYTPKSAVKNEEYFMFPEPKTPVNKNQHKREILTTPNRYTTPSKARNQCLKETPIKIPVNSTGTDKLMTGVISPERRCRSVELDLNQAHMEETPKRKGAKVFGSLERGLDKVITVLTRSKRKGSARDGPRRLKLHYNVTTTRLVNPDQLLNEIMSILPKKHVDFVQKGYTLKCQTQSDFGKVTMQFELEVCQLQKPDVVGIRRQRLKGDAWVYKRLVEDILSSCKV
Sequence of UniProt P30291 (whole entry, looked up): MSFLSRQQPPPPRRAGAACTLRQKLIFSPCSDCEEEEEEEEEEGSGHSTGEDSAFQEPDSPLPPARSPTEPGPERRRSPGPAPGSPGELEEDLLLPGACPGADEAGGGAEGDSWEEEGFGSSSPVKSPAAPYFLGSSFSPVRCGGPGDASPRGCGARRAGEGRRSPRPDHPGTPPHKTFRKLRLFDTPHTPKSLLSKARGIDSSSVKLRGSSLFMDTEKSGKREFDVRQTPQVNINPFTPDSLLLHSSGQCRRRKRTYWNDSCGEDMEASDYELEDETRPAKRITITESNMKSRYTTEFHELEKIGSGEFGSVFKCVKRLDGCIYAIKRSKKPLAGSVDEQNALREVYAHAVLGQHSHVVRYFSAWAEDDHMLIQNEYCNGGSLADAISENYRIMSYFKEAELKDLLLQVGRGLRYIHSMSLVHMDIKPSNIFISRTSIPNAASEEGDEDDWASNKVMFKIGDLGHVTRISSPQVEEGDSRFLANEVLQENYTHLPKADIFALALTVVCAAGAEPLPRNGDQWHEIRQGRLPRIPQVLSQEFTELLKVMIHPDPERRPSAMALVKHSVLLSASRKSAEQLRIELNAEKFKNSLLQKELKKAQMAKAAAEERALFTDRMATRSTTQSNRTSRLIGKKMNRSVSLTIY
Sequence of UniProt Q13470 (whole entry, looked up): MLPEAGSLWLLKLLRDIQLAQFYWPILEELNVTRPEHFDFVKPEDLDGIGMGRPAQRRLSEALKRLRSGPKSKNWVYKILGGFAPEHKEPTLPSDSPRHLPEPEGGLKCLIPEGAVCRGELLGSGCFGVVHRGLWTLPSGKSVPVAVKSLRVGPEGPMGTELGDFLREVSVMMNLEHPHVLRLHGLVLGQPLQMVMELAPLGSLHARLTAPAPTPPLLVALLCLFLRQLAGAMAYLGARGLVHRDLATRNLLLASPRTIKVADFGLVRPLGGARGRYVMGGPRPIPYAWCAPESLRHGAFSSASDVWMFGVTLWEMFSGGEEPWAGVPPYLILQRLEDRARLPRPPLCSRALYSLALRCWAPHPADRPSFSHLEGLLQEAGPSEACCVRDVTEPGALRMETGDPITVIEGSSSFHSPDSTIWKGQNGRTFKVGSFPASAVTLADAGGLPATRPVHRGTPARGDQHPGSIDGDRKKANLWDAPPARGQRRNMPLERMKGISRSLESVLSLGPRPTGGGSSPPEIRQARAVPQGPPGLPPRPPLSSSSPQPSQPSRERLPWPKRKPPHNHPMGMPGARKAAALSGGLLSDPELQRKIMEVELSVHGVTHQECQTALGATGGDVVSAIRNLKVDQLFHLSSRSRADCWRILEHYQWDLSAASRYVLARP
Sequence of UniProt Q16659 (whole entry, looked up): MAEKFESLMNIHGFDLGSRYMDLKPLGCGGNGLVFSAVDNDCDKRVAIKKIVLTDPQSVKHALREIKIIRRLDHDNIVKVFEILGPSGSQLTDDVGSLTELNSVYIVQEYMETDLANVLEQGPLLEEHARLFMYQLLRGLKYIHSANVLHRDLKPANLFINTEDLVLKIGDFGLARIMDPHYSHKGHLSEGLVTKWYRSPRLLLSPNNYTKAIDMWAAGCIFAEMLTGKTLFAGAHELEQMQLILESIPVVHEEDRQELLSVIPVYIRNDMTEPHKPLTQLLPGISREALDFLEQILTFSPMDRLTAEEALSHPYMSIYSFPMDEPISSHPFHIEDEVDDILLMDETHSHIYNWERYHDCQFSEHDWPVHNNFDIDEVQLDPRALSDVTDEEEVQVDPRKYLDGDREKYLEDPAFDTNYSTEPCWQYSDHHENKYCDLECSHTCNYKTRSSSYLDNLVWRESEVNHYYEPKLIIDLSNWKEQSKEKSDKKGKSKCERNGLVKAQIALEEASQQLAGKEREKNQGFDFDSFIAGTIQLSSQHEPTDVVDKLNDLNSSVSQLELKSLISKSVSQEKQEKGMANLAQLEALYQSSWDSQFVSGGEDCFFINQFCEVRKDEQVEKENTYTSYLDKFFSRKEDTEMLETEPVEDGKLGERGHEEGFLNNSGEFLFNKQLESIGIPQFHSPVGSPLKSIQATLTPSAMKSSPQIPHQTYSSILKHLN

Study 1
Compound: Cc1ncsc1-c1ccc(C(CO)NC(=O)C2CC(O)CN2C(=O)C(C(C)C)n2cc(-c3ccc(COc4c(-c5c(C)c(F)cc6[nH]ncc56)c(C5CC5)cc5c(N6CC7CC6CN7)nc(OC6CCOCC6)nc45)cc3)nn2)cc1 (stereo not drawn)
cells	species	route	dose	time	tumour volume
	mouse, lung LXFA sample A PDX		10 mg/kg twice weekly	day 19	189 mm3 and 96.1 mm3 and 96.4 mm3 and 443 mm3 and 96.6 mm3 and 316 mm3 and 249 mm3 and 160 mm3
	mouse, PK-59 xenograft	subcutaneous	30 mg/kg once daily	day 13	49.6 mm3 and 52.2 mm3 and 69.6 mm3 and 45.9 mm3 and 67.6 mm3
PK-1 xenograft	mouse		30 mg/kg once weekly	day 4	160 mm3 and 161 mm3 and 117 mm3 and 138 mm3 and 167 mm3
	mouse, PK-59 xenograft		30 mg/kg	day 0	241 mm3 and 309 mm3 and 268 mm3 and 334 mm3 and 310 mm3
	mouse, lung LXFA sample A PDX		30 mg/kg twice weekly	day 22	51.8 mm3 and 49.7 mm3 and 63.6 mm3 and 13.8 mm3 and 63 mm3 and 74 mm3 and 118 mm3 and 125 mm3
	mouse, lung LXFA sample B PDX		30 mg/kg twice weekly	day 7	170 mm3 and 104 mm3 and 127 mm3 and 38.8 mm3 and 103 mm3 and 56 mm3 and 62.2 mm3 and 84.1 mm3
	mouse, lung LXFA sample B PDX		10 mg/kg twice weekly	day 4	375 mm3 and 102 mm3 and 47.1 mm3 and 124 mm3 and 132 mm3 and 263 mm3 and 197 mm3 and 70.3 mm3
	mouse, HT-29 xenograft	sc	30 mg/kg once daily	day 1	194 mm3 and 216 mm3 and 186 mm3 and 189 mm3 and 201 mm3
	mouse, PK-59 xenograft	subcutaneous	30 mg/kg once daily	day 15	45.5 mm3 and 44.5 mm3 and 47.9 mm3 and 61.3 mm3 and 44 mm3
HPAC xenograft	mouse		30 mg/kg once weekly	day 0	226 mm3 and 214 mm3 and 258 mm3 and 204 mm3 and 239 mm3

Study 2 — Compound: Cc1nc(C)c(C=[N+]([O-])C(C)(C)C)nc1C; technique: footprint test
Species: MPTP-induced Parkinson's disease mouse model
dose	setting	corridor crossing time
30 mg/kg	trial 2	6.33 s and 5.22 s and 6.09 s and 6.73 s and 5.72 s and 5.49 s and 6.12 s and 4.75 s
90 mg/kg	mean of three trials	5.23 s and 4.73 s and 6.19 s and 5.45 s and 5.55 s and 5.13 s and 5.26 s
30 mg/kg		5.14 s and 6.09 s and 5.36 s and 6.45 s and 5.65 s and 5.33 s and 5.06 s and 7.54 s
30 mg/kg	trial 1	5.5 s and 6.08 s and 9.05 s and 5.97 s and 5.16 s and 4.78 s and 8.74 s and 4.85 s
90 mg/kg	trial 2	5.65 s and 5.63 s and 7.26 s and 5.66 s and 7.22 s and 6.69 s and 6.35 s
10 mg/kg	trial 2	6.22 s and 6.73 s and 7.85 s and 7.13 s and 4.99 s and 9.21 s and 5.22 s
10 mg/kg	mean of three trials	6.88 s and 6.37 s and 4.7 s and 8.42 s and 6 s and 7.11 s and 6.83 s
90 mg/kg	trial 3	5.6 s and 7.13 s and 5.23 s and 4.47 s and 4.24 s and 6.09 s and 5.22 s

Study 3 — organism: Arabidopsis thaliana; strain: Col-0; setting: seed germination
Compound: CN1C(=O)C(O)(C(=O)O)Oc2cc(F)ccc21 (stereo not drawn)
concentration	root length [cm]
25 µg/mL	0.838
12.5 µg/mL	0.919
3.125 µg/mL	1.1
50 µg/mL	0.755

Study 4 — read-out: thermal unfolding; technique: differential scanning fluorimetry; concentration: 5.5 µM; direction: higher = more unfolded
SMILES: C[C@@H]1CN(c2ccc(-c3cc(C(=O)NCCOCCOCCOCCOCCOCCOCCNC(=O)/C=C/c4[nH]cc(C(=O)N[C@@H](CC(N)=O)c5ccc(F)c(Cl)c5)c4-c4ccc(Cl)cc4F)ccc3F)cc2NC(=O)c2ccc(F)cc2C(F)(F)F)C[C@H](C)N1C
DCAF1: DDB1- and CUL4-associated factor 1 (DCAF1, Homo sapiens, UniProt Q9Y4B6)
Sequence of UniProt Q9Y4B6 (whole entry, looked up): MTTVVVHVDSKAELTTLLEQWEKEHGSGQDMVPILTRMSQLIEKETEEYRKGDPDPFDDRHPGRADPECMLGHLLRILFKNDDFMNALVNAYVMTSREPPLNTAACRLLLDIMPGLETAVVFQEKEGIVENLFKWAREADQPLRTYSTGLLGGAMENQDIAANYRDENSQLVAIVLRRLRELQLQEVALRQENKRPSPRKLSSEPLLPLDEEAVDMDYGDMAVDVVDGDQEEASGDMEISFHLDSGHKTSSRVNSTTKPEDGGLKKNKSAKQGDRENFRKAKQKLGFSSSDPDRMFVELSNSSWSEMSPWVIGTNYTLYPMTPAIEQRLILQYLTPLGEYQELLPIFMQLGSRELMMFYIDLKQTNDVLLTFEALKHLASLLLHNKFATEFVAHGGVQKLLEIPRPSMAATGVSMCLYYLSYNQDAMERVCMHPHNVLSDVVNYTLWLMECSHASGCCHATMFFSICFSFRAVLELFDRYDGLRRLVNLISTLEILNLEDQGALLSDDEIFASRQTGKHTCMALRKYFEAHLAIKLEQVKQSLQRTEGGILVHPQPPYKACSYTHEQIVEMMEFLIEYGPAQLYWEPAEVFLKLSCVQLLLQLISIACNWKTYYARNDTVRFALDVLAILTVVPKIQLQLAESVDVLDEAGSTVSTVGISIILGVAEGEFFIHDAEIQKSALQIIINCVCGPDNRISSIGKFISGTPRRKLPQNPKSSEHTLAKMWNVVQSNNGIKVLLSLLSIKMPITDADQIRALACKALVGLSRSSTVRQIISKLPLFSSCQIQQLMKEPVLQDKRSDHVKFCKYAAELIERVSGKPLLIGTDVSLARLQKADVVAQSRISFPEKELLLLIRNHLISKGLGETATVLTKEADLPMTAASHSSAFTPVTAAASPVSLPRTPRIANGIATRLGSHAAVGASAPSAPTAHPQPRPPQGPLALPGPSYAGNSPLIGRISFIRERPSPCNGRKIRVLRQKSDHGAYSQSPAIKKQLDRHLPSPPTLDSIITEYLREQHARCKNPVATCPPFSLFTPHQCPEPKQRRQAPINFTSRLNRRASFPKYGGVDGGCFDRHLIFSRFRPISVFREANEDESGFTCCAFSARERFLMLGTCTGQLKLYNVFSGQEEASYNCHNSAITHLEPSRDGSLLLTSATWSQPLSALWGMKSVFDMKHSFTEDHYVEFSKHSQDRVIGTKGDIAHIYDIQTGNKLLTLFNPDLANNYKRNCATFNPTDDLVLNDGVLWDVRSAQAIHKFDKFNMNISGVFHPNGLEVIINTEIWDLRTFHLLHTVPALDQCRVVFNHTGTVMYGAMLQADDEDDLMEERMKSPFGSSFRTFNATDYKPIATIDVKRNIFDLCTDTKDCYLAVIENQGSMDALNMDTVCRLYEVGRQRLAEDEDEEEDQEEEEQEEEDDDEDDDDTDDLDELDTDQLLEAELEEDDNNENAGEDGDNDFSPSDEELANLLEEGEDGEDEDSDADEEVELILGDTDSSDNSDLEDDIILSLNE
WDR5: WD repeat-containing protein 5 (WDR5, Homo sapiens, UniProt P61964)
target	temperature	SYPRO Orange fluorescence
DCAF1	88.21 °C	33800 a.u.
DCAF1	36.2 °C	10400 a.u.
WDR5	83.61 °C	64100 a.u.
DCAF1	70.81 °C	47400 a.u.
WDR5	59.61 °C	15500 a.u.
DCAF1	62.61 °C	53600 a.u.
WDR5	33 °C	13800 a.u.
WDR5	65.21 °C	16500 a.u.
WDR5	84.81 °C	62400 a.u.
WDR5	58.81 °C	15700 a.u.
DCAF1	40.4 °C	11700 a.u.

Study 5 — cell line: U-87 MG; concentration: concentration not given; reference: DMSO
Compound: CCN1/C(=C/C=C2\CCCC(/C=C/C3=[N+](CC)c4ccccc4C3(C)C)=C2NCCCCCCCCN2CCC(Nc3nc4ccccc4n3Cc3ccc(F)cc3)CC2)C(C)(C)c2ccccc21
refers to	log2 fold change
FOXP2 mRNA	1.52
CDK15 mRNA	-2.62
CENPO mRNA	-1.73
GINS1 mRNA	-2.43
TMEM167B mRNA	0.908
ARL8A mRNA	1.23
TONSL mRNA	-1.93
CALHM2 mRNA	-1.66
NR3C2 mRNA	1.39
LZTFL1 mRNA	1.16
ADAM8 mRNA	-1.75
C9orf50 mRNA	2.76
CHORDC1 mRNA	1.26
ARHGAP22 mRNA	-1.58
KIF20B mRNA	-2.26
SP7 mRNA	-4.89

Study 6 — technique: NanoBRET; concentration: 1 µM
Structure (SMILES): COc1cc(-c2nc3ccc(C(=O)NCCCN(C)C)cc3n2C2CCC2)cc(OC)c1OC
target	target occupancy [%]
Maternal embryonic leucine zipper kinase (MELK, Homo sapiens, UniProt Q14680)	3.6
Activated CDC42 kinase 1 (TNK2, Homo sapiens, UniProt Q07912)	-1.11
Ribosomal protein S6 kinase alpha-4 (RPS6KA4, Homo sapiens, UniProt O75676)	3.16
Ribosomal protein S6 kinase alpha-3 (RPS6KA3, Homo sapiens, UniProt P51812)	-5.46
Serine/threonine-protein kinase Sgk1 (SGK1, Homo sapiens, UniProt O00141)	1.66
Tyrosine-protein kinase Mer (MERTK, Homo sapiens, UniProt Q12866)	1.02
Non-receptor tyrosine-protein kinase TNK1 (TNK1, Homo sapiens, UniProt Q13470)	0.17
Protein kinase C epsilon type (PRKCE, Homo sapiens, UniProt Q02156)	1.06
Serine/threonine-protein kinase Nek1 (NEK1, Homo sapiens, UniProt Q96PY6)	2.18
Wee1-like protein kinase (WEE1, Homo sapiens, UniProt P30291)	1.03
Cyclin-dependent kinase 16, with cyclin Y (CDK16, Homo sapiens, UniProt Q00536)	-1.72
Tyrosine-protein kinase Lck (LCK, Homo sapiens, UniProt P06239)	1.56
Dual specificity tyrosine-phosphorylation-regulated kinase 1B (DYRK1B, Homo sapiens, UniProt Q9Y463)	-0.76
Homeodomain-interacting protein kinase 4 (HIPK4, Homo sapiens, UniProt Q8NE63)	1.16
Serine/threonine-protein kinase 35 (STK35, Homo sapiens, UniProt Q8TDR2)	2.43
Mitogen-activated protein kinase 6 (MAPK6, Homo sapiens, UniProt Q16659)	-1.24
Mitogen-activated protein kinase 9 (MAPK9, Homo sapiens, UniProt P45984)	0.89
Serine/threonine-protein kinase DCLK3 (DCLK3, Homo sapiens, UniProt Q9C098)	5.88
Leucine-rich repeat serine/threonine-protein kinase 2 (LRRK2, Homo sapiens, UniProt Q5S007)	3.22

Study 7
SMILES: COCCCCCCC1CC2C(CCC3(C)C(O)CCC23)c2ccc(O)cc21 (stereo not drawn)
cell line	technique	refers to	concentration	reference	mRNA level ratio
A549	microarray	ACTA2	10 µM	untreated	1.15
PANC-1	DNA microarray	GZMK	50 µM	untreated cells	10.4
SK-OV-3	DNA microarray	ACTB	10 µM	untreated cells	0.772
PANC-1	DNA microarray	ACTB	50 µM	untreated cells	1.18
SK-OV-3	microarray	ACTA2	10 µM	untreated	1.04
A549	microarray	ACTA2	50 µM	untreated	0.771
SK-OV-3	microarray	GADD45A	10 µM	untreated	0.809
PANC-1	microarray	ACTA2	10 µM	untreated	0.811
SK-OV-3	DNA microarray	CCL22	50 µM	untreated cells	1
PANC-1	DNA microarray	GZMK	10 µM	untreated cells	10.2

Study 8 — reference: vehicle
SMILES: C#Cc1cccc2cc(O)cc(-c3ncc4c(N5CC6CCC(C5)N6)nc(OCC56CCCN5CCC6)nc4c3F)c12
cell line	read-out	technique	concentration	viability
HEK293		CellTiter-Glo	13.7 nM	98% and 102% and 99.5%
NCI-H647	cell proliferation	CellTiter-Glo luminescence	1 µM	82.4% and 85.1% and 86%
HEK293		CellTiter-Glo	41.1 nM	99.1% and 101% and 98.5%
HEK293		CellTiter-Glo luminescence	1 µM	91.8% and 87.2% and 92.3%
HEK293		CellTiter-Glo	1.52 nM	98.7% and 95.9% and 98.2%
NCI-H647	cell proliferation	CellTiter-Glo luminescence	0.5229 µM	91.8% and 91.3% and 93.3%
HEK293		CellTiter-Glo	123 nM	98.4% and 97.8% and 101%
HEK293		CellTiter-Glo luminescence	0.04576 µM	97.8% and 96.8% and 95.6%
HEK293		CellTiter-Glo	4.57 nM	101% and 98.3% and 104%
NCI-H647	cell proliferation	CellTiter-Glo luminescence	0.04576 µM	96.1% and 97.4% and 96.2%
HEK293		CellTiter-Glo luminescence	0.5229 µM	90.7% and 89.4% and 93.4%

Single results of other studies
Compound	species	sample	route	dose	time	endpoint	value
Cc1ccc(O)c(C)c1-c1cnc2[nH]c(-c3cnc(N4CCC(CN5CCN(c6cc7c(cc6F)c(N6CCC(=O)NC6=O)nn7C)CC5)CC4)nc3)cc2c1C#N	female CD-1 mouse	plasma	oral	20 mg/kg		AUC(0-t)	7850 ng·h/mL
Cc1ccc(O)c(C)c1-c1cnc2[nH]c(-c3cnc(N4CCC(CN5CCN(c6ccc(NC7CCC(=O)NC7=O)cc6F)CC5)CC4)nc3)cc2c1C#N (stereo not drawn)	Sprague-Dawley rat, male	plasma	oral	10 mg/kg		half-life	4.5 h
Cc1ccc(O)c(C)c1-c1cnc2[nH]c(-c3cnc(N4CCC5(CC4)CC(N4CCN(c6ccc(N[C@H]7CCC(=O)NC7=O)cc6F)CC4)CO5)nc3)cc2c1C#N (single isomer, unassigned)	mouse HCC1569 xenograft		oral	120 mg/kg twice daily	21 days	tumour growth inhibition	66.4%
Cc1ccc(O)c(C)c1-c1cnc2[nH]c(-c3cnc(N4CCC5(CC4)CC(CN4CCN(c6ccc(NC7CCC(=O)NC7=O)cc6F)CC4)C5)nc3)cc2c1C#N (stereo not drawn)	CD-1 mouse, female	plasma	intravenous	1 mg/kg		plasma clearance	26.9 mL/min/kg

Repeated from above (study 6):
target	target occupancy [%]
Serine/threonine-protein kinase Sgk1 (SGK1, Homo sapiens, UniProt O00141)	1.66
Tyrosine-protein kinase Mer (MERTK, Homo sapiens, UniProt Q12866)	1.02
Non-receptor tyrosine-protein kinase TNK1 (TNK1, Homo sapiens, UniProt Q13470)	0.17
Protein kinase C epsilon type (PRKCE, Homo sapiens, UniProt Q02156)	1.06
Serine/threonine-protein kinase Nek1 (NEK1, Homo sapiens, UniProt Q96PY6)	2.18
Wee1-like protein kinase (WEE1, Homo sapiens, UniProt P30291)	1.03
Cyclin-dependent kinase 16, with cyclin Y (CDK16, Homo sapiens, UniProt Q00536)	-1.72
Tyrosine-protein kinase Lck (LCK, Homo sapiens, UniProt P06239)	1.56
Dual specificity tyrosine-phosphorylation-regulated kinase 1B (DYRK1B, Homo sapiens, UniProt Q9Y463)	-0.76
Homeodomain-interacting protein kinase 4 (HIPK4, Homo sapiens, UniProt Q8NE63)	1.16
Serine/threonine-protein kinase 35 (STK35, Homo sapiens, UniProt Q8TDR2)	2.43
